Measurements gathered from unrelated publications.
Every numbered part comes from another study and shows a few of its results, in no order.
UniProt Q9H2X6, sequence (whole entry, looked up): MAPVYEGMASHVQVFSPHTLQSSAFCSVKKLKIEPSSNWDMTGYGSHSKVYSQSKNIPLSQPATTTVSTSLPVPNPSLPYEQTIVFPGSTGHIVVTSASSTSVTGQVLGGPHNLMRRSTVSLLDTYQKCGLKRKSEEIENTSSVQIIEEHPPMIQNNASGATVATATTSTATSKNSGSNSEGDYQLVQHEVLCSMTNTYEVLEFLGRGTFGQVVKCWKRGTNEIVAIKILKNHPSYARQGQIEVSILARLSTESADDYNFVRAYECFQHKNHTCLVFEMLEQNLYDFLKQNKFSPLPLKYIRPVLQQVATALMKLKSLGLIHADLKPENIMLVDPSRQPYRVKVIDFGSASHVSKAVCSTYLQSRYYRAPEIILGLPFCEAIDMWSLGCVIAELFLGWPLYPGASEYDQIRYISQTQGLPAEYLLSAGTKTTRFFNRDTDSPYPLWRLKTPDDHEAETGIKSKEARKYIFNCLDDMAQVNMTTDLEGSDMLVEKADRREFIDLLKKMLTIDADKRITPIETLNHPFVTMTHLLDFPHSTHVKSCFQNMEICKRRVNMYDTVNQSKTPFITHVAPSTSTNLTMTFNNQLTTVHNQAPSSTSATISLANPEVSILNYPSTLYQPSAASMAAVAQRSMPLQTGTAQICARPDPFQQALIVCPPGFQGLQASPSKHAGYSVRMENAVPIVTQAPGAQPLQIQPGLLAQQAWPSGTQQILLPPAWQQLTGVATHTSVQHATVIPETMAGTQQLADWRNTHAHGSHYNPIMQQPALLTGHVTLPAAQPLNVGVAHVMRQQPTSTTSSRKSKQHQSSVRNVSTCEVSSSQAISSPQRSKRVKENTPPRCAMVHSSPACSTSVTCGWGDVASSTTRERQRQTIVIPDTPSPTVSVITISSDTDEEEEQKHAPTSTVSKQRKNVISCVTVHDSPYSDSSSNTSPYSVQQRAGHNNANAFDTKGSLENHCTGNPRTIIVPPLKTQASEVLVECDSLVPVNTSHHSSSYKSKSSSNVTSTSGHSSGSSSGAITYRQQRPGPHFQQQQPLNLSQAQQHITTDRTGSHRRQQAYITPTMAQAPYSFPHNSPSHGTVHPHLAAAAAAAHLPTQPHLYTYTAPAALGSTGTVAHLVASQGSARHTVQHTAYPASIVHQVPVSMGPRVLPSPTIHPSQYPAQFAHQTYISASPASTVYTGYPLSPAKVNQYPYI
UniProt P11802, sequence (whole entry, looked up): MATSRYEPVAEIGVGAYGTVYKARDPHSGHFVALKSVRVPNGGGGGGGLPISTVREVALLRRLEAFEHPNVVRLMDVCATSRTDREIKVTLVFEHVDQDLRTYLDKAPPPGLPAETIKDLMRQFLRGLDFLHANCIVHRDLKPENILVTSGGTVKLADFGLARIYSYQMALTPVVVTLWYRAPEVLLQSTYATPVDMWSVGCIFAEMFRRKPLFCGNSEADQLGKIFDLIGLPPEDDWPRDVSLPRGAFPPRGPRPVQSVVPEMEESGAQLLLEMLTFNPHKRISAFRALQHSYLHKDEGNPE
UniProt Q00534, sequence (whole entry, looked up): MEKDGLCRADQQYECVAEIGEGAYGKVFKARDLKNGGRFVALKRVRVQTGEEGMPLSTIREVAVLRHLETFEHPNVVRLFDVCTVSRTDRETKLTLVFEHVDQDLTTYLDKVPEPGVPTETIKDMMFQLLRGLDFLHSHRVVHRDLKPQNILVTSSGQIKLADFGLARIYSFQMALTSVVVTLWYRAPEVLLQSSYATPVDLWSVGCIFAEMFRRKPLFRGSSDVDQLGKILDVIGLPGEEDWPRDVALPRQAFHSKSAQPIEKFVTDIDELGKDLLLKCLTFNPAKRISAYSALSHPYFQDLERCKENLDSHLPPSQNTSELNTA
UniProt Q13554, sequence (whole entry, looked up): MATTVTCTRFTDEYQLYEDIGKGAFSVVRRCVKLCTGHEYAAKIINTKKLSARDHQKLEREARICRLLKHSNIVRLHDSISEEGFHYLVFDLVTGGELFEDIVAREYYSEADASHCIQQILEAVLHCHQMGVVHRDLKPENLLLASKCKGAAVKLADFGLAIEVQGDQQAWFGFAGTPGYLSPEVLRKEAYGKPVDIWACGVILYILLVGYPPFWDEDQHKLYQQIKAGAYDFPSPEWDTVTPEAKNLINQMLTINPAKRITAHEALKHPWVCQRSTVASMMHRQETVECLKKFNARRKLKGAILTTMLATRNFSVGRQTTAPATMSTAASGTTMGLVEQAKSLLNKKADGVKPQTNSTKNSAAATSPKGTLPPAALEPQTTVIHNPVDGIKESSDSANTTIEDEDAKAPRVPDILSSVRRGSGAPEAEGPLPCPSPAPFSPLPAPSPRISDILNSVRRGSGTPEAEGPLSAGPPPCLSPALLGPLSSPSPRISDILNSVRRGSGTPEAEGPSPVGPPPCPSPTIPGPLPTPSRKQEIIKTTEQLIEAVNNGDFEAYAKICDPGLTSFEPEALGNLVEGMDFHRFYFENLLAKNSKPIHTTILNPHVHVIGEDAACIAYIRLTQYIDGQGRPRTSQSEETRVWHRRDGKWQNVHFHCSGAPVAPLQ
UniProt Q16816, sequence (whole entry, looked up): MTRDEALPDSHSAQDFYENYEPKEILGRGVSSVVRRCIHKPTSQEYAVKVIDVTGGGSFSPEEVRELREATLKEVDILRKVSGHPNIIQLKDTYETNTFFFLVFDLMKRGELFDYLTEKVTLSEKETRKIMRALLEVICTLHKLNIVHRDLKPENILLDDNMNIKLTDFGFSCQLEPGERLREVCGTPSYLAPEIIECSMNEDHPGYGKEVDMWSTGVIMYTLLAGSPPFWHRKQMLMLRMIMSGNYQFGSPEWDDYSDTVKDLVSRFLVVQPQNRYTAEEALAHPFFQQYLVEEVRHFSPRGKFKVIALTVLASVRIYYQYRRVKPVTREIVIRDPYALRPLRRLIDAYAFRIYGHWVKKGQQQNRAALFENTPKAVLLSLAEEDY
UniProt P35968, sequence (whole entry, looked up): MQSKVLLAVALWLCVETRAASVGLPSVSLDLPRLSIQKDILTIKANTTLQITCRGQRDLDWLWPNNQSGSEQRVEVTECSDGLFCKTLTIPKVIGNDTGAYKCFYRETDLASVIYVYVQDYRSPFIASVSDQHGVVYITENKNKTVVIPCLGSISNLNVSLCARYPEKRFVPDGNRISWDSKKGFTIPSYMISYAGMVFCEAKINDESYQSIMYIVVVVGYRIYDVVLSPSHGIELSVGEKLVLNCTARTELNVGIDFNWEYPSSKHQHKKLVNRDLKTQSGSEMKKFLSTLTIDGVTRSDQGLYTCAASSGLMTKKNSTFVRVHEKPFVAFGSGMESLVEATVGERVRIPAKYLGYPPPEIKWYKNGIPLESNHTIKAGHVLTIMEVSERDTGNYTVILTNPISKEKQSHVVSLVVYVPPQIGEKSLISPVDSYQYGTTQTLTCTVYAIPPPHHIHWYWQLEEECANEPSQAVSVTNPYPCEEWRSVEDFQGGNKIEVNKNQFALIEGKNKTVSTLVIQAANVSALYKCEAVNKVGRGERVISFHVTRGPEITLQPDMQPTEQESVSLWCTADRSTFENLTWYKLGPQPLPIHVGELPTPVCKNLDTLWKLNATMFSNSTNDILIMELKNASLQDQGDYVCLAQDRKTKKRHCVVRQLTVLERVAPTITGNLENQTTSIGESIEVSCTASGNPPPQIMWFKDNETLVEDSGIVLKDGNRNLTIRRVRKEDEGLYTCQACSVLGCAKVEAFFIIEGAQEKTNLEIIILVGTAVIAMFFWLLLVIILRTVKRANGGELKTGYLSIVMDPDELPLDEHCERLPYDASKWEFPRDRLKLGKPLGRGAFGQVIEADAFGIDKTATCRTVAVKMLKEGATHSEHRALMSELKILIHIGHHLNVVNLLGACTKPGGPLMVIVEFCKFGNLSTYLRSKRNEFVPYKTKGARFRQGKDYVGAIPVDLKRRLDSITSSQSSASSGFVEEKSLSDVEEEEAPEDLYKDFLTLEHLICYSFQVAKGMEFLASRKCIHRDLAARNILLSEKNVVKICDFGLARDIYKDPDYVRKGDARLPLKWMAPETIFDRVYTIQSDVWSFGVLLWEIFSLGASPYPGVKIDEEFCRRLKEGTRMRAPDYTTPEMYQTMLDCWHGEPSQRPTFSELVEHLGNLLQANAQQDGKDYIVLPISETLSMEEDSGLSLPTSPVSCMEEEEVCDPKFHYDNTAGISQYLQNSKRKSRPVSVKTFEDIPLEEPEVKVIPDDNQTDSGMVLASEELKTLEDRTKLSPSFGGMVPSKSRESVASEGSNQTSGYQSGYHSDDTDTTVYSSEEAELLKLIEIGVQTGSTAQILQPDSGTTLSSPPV

Series 1 — method: RNA Bind-n-Seq; molecule type: RNA; medium: in vitro; tested at: 100 nM; reference: input RNA pool; reading: higher = stronger binding
Target: RING finger protein unkempt homolog, zinc fingers 1-6, SBP tag (UNK, Homo sapiens, UniProt Q9C0B0, residues 30-357)
UniProt Q9C0B0, sequence (30-357, looked up): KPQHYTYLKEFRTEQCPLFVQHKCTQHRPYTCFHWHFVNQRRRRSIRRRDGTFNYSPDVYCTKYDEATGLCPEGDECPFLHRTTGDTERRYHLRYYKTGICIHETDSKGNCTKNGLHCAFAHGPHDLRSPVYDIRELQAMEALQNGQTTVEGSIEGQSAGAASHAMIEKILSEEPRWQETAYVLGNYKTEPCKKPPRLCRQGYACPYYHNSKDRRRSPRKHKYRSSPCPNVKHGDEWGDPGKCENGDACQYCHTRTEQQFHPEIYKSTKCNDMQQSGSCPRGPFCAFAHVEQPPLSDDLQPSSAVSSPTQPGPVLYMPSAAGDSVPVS
Setting: RNA with constant flanks, vertebrate orthologous sites, ends assumed
Constant ends, left off below: GGGAGUUCUACAGUCCGACGAUC … CAACAGAGGAUUGAGCAUCA
`UUUUAUUGAUCAGGUCUGUAAAUGUGUACUAAAAAAAUCAGAGUUUAUUUAUAAACAGAAUAGUUUAUUUAAAGACAAGGUCUUUCCUCAUUGUGGUAUGCAUUAAUUCCAUUUGUUACU` gave a bound/input enrichment of 0.113 ratio.
`CUCCCCGGUACCCCUAAAGUAGAACUUUUUAAAAUUAUGUCACCACCACUUCUAAAACUUUAGCAAUAUUAGAAGAAAAUGCUAAUGAAGUAAGAAAUUUUGCUCAUUGUUCUGCAAACC` has a bound/input enrichment of 0.817 ratio.
`ACAUGUAUAUUGUGGCAUAUAGUCAACAUGGAAGUAGACCGGCUCUGCUGAUUUGAAAUUUAGAUUUUUUUAAUUAUGUACUGGGGACAGGUUUUUGUCGCUUUACAUUGCUUCCUAGUU` gave a bound/input enrichment of 4.4 ratio.
With `AUUAUUCAUUUGGCUGAAAUUAUUUAGAUAAGAAAUUACUAGUUUUCUUUCAAACAGCAUAUCCUAUUUUUCAUCUACUUUGCAAAUACAAGUUUUCUGUGAUUUCUUAACAUGCCAAAA` the bound/input enrichment was 0.574 ratio.
With `GAAGCUAUUGAAUAGUAUUAAGAUUCUCGUCUUCCUUUUUCUUUUUUUUUGGUCCCAUAAUAGUCUACUUUUUUAAAUUUCAGACUCCACUGCUCUUUGAAUUGAUACUUCCAAUUUUCA` the bound/input enrichment was 1.27 ratio.
`AAAUUUACUUCAUGCCCUGGACGCCCUACCGCACCGACACUUUGAUCGAGUUUGCCUCUAUCGAAGACUUCCAGAAUAGCCGUCAGACCACUACGUAUAAACUUCCCAACCGAGUAGACG` has a bound/input enrichment of 0.625 ratio.
`UAUGAUUAUGAAAUUCUAACAGAUUUUUAAUGUUUAAUUUCCCCUGACAUAUAAAGACCUUUUUUUUUUCCAGGCAGAUAAUUCAGAGUGUGUGCACAUGUUACAAAAGAUGACUACCAU` gave a bound/input enrichment of 0.397 ratio.
For `GUGACUUUGGACGUCCGCUCAGCCGGGUUGCAGAAGCCGCUUGGUGUGUGUCCCGUGCUCGUUCUCCUGUCUCUGGAGGUAGGCCUCUGCCGCAAACAUGCUCCGUCAGAUCAUCGGGCA`, the bound/input enrichment was 0.277 ratio.

Series 2 — effect on: cell-free assay; method: competition with immobilised ligand; tested at: 1 µM
Structure (SMILES): C[C@@H](c1cccc(C#N)c1)n1cc(Cl)cc(C(N)=O)c1=N
The remaining binding was 98% (Phosphatidylinositol 4,5-bisphosphate 3-kinase catalytic subunit alpha isoform (PIK3CA, Homo sapiens, UniProt P42336, E545A)).
For Insulin receptor-related protein (INSRR, Homo sapiens, UniProt P14616): remaining binding read 100%.
It gave 100% for remaining binding (Mitogen-activated protein kinase 10 (MAPK10, Homo sapiens, UniProt P53779)).
It gave 73% for remaining binding (Vascular endothelial growth factor receptor 2 (KDR, Homo sapiens, UniProt P35968)).
Tyrosine-protein kinase Fgr (FGR, Homo sapiens, UniProt P09769) — remaining binding: 87%.
It gave 77% for remaining binding (Wee1-like protein kinase 2 (WEE2, Homo sapiens, UniProt P0C1S8)).

Series 3 — effect on: enzyme activity; mode: inhibitor; tested at: 0.5 µM; reference: control
SMILES: CCN(CC)C(=O)c1ccc(Nc2nc(OCC3CCCCC3)c3[nH]cnc3n2)cc1
For Calcium/calmodulin-dependent protein kinase type II subunit beta (CAMK2B, Homo sapiens, UniProt Q13554): remaining activity read 97.6%.
Ephrin type-A receptor 4 (EPHA4, Homo sapiens, UniProt P54764) — remaining activity: 86.7%.
It gave 85.9% for remaining activity (Phosphorylase b kinase gamma catalytic chain, skeletal muscle/heart isoform (PHKG1, Homo sapiens, UniProt Q16816)).
For Testis-specific serine/threonine-protein kinase 2 (TSSK2, Homo sapiens, UniProt Q96PF2): remaining activity read 87.4%.
Serine/threonine-protein kinase 16 (STK16, Homo sapiens, UniProt O75716) — remaining activity: 33.6%.
It gave 59.2% for remaining activity (Cyclin-dependent kinase 4, with cyclin D3 (CDK4, Homo sapiens, UniProt P11802)).
Homeodomain-interacting protein kinase 2 (HIPK2, Homo sapiens, UniProt Q9H2X6) — remaining activity: 92.4%.
It gave 85% for remaining activity (Ephrin type-B receptor 4 (EPHB4, Homo sapiens, UniProt P54760)).
For Homeodomain-interacting protein kinase 4 (HIPK4, Homo sapiens, UniProt Q8NE63): remaining activity read 96.5%.
Ribosomal protein S6 kinase alpha-6 (RPS6KA6, Homo sapiens, UniProt Q9UK32) — remaining activity: 46.2%.
For Cyclin-dependent kinase 6, with cyclin D3 (CDK6, Homo sapiens, UniProt Q00534): remaining activity read 47.2%.

Series 4 — method: RNA Bind-n-Seq; molecule type: RNA; medium: in vitro; tested at: 15 pmol; setting: 4-mer, random 30-nt RNA, single round; added: 3 µM RocA, 2 mM AMP-PNP; reference: mean of 4-mers; reading: higher = stronger binding
Target: Eukaryotic initiation factor 4A-I (EIF4A1, Homo sapiens, UniProt P60842, residues 1-406, full length assumed)
UniProt P60842, sequence (whole entry, looked up): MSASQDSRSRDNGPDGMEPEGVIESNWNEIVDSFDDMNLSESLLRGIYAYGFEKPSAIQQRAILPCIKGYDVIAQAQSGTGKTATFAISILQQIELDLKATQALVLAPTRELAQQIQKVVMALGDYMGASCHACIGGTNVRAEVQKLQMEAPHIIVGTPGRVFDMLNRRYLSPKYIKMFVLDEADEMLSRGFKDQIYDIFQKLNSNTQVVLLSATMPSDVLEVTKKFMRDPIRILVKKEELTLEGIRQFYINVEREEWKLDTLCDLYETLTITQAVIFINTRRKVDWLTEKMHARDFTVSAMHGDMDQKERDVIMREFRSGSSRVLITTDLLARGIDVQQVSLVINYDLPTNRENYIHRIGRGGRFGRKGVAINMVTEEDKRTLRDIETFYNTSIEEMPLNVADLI
`ACUU` — result for “4-mer enrichment Z-score”: -0.806.
Under “4-mer enrichment Z-score”, `CAGG` is recorded as -0.0278.
`CCGU` — result for “4-mer enrichment Z-score”: -0.712.
For `AGAG`, “4-mer enrichment Z-score” read 1.96.
For `AUGU`, “4-mer enrichment Z-score” read 0.757.
`GGGC` — result for “4-mer enrichment Z-score”: 0.74.
`UAAU`: “4-mer enrichment Z-score” 0.26.
`GGAG`: “4-mer enrichment Z-score” 1.95.

Some of these lines once more (series 1):
With `GAAGCUAUUGAAUAGUAUUAAGAUUCUCGUCUUCCUUUUUCUUUUUUUUUGGUCCCAUAAUAGUCUACUUUUUUAAAUUUCAGACUCCACUGCUCUUUGAAUUGAUACUUCCAAUUUUCA` the bound/input enrichment was 1.27 ratio.
`AAAUUUACUUCAUGCCCUGGACGCCCUACCGCACCGACACUUUGAUCGAGUUUGCCUCUAUCGAAGACUUCCAGAAUAGCCGUCAGACCACUACGUAUAAACUUCCCAACCGAGUAGACG` has a bound/input enrichment of 0.625 ratio.
`UAUGAUUAUGAAAUUCUAACAGAUUUUUAAUGUUUAAUUUCCCCUGACAUAUAAAGACCUUUUUUUUUUCCAGGCAGAUAAUUCAGAGUGUGUGCACAUGUUACAAAAGAUGACUACCAU` gave a bound/input enrichment of 0.397 ratio.
For `GUGACUUUGGACGUCCGCUCAGCCGGGUUGCAGAAGCCGCUUGGUGUGUGUCCCGUGCUCGUUCUCCUGUCUCUGGAGGUAGGCCUCUGCCGCAAACAUGCUCCGUCAGAUCAUCGGGCA`, the bound/input enrichment was 0.277 ratio.
